Published values gathered from unrelated publications.
Numbered parts are unrelated; each lists some results of a single study. Values joined by “and” are separate records of one study, mostly repeats; a detail may differ.
UniProt P29323, sequence (whole entry, looked up): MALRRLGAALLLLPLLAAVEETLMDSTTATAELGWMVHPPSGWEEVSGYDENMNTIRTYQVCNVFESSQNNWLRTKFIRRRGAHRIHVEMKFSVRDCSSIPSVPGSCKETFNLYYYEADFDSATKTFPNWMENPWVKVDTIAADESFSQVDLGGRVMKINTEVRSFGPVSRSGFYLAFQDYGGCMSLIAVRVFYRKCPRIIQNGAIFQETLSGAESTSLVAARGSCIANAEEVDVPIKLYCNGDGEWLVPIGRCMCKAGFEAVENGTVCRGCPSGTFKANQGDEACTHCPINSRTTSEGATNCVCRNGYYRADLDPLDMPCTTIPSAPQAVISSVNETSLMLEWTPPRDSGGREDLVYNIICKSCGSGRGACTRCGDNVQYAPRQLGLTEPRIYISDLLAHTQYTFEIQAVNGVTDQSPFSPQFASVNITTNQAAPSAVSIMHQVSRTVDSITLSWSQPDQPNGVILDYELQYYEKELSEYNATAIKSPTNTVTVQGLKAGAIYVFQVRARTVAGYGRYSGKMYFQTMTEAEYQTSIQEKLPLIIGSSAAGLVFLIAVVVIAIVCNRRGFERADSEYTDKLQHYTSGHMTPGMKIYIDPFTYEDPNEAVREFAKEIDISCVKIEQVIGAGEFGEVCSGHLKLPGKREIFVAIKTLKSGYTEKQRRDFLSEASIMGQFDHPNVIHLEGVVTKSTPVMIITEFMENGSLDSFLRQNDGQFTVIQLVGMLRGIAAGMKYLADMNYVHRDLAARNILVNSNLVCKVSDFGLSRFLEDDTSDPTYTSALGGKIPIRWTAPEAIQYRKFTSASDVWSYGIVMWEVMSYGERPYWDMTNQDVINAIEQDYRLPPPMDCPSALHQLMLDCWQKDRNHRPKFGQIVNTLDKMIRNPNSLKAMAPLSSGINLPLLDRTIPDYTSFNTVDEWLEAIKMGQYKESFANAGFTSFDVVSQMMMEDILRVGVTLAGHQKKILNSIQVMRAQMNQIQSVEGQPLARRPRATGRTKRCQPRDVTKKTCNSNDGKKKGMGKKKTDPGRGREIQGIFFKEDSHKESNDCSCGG
UniProt P06241, sequence (whole entry, looked up): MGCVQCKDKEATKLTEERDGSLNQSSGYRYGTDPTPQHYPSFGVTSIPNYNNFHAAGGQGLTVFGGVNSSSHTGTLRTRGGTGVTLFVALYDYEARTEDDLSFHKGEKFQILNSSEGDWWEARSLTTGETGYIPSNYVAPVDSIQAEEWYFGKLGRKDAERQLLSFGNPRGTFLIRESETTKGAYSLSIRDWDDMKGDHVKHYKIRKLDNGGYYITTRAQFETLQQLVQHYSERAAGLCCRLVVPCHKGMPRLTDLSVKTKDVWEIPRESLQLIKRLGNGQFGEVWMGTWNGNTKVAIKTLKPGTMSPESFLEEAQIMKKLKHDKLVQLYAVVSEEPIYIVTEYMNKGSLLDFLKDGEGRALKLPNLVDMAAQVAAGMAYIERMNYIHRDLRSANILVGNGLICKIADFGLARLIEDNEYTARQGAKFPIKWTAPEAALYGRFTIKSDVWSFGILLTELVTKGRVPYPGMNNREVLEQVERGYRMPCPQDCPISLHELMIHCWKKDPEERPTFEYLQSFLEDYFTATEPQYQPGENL
UniProt P49840, sequence (whole entry, looked up): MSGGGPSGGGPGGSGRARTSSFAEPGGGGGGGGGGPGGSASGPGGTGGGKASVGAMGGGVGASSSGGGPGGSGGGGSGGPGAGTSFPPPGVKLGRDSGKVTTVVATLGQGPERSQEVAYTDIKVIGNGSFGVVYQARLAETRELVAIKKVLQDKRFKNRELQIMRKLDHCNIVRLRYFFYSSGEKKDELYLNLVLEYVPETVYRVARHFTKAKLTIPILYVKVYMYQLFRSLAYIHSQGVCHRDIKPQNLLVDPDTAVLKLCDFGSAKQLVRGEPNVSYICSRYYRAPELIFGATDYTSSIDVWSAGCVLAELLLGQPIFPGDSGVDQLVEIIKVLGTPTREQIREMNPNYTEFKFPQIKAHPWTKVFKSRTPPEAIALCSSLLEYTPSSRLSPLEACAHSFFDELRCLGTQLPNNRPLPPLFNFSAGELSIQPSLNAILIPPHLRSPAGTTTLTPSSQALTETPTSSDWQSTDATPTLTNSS
UniProt Q16539, sequence (whole entry, looked up): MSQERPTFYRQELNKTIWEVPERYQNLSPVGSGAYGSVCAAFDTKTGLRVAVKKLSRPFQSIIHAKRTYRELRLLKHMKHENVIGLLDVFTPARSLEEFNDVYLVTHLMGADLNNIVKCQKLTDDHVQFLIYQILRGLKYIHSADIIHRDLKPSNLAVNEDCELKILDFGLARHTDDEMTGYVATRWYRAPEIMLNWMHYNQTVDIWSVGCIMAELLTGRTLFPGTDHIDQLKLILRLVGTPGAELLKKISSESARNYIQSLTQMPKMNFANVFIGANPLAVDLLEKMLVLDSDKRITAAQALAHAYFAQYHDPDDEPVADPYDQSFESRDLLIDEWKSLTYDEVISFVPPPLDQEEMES
UniProt P51813, sequence (whole entry, looked up): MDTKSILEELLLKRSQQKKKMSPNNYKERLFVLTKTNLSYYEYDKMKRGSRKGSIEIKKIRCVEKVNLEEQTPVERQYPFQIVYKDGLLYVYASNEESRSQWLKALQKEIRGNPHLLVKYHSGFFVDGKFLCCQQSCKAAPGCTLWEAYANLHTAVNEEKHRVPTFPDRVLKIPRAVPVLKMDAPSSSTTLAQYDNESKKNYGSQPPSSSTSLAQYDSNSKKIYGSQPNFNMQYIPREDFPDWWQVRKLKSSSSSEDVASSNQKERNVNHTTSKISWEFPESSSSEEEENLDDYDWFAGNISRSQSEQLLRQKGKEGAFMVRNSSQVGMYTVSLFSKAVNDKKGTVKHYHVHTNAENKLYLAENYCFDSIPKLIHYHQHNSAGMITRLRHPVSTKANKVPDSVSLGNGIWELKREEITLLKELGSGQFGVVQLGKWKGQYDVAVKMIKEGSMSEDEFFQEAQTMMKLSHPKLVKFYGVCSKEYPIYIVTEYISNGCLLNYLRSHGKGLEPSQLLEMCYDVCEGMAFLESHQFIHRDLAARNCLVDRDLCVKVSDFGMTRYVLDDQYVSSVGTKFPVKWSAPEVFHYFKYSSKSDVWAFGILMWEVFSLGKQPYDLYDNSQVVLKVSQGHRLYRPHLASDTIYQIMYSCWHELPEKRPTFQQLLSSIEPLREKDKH
UniProt Q9UQB9, sequence (whole entry, looked up): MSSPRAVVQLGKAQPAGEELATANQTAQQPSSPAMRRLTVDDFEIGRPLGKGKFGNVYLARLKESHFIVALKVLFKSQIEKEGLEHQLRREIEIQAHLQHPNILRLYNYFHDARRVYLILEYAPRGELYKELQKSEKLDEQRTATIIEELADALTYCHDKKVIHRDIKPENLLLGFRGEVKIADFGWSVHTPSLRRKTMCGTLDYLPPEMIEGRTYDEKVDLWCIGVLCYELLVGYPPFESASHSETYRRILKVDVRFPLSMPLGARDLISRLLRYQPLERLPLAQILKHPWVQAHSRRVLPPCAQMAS
UniProt P43250, sequence (whole entry, looked up): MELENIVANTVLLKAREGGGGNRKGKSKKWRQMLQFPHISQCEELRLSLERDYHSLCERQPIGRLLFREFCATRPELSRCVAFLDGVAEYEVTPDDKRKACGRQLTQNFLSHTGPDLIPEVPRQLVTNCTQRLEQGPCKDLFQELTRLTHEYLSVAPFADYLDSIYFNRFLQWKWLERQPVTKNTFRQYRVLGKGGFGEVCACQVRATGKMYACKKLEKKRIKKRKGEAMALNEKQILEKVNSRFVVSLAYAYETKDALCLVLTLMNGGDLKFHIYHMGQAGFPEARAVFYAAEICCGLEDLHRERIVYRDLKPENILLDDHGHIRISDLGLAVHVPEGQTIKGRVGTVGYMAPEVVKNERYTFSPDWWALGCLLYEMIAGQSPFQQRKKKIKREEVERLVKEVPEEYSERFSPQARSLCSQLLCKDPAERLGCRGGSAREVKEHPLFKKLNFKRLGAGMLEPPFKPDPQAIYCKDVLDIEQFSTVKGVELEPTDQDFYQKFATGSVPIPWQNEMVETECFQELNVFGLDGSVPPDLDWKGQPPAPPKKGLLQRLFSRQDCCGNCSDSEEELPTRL
UniProt P49761, sequence (whole entry, looked up): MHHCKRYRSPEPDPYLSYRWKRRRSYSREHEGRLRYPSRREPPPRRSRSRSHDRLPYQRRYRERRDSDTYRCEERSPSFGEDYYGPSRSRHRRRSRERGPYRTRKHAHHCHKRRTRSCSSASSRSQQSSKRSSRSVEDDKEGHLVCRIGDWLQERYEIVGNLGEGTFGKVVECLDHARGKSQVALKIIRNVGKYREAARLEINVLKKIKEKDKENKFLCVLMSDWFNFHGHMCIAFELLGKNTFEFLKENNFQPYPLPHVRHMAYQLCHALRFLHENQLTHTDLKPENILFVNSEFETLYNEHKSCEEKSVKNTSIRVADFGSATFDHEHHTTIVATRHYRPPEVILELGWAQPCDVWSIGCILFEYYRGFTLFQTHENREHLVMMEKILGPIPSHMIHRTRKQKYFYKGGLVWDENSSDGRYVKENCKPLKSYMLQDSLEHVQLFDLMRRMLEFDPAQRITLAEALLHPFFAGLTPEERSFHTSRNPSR

Series 1 — observed: enzyme activity; mode: inhibitor; concentration: 10 µM; quantity: inhibition
Target: Calcium/calmodulin-dependent protein kinase type II subunit alpha (CAMK2A, Homo sapiens, UniProt Q9UQM7)
UniProt Q9UQM7, sequence (whole entry, looked up): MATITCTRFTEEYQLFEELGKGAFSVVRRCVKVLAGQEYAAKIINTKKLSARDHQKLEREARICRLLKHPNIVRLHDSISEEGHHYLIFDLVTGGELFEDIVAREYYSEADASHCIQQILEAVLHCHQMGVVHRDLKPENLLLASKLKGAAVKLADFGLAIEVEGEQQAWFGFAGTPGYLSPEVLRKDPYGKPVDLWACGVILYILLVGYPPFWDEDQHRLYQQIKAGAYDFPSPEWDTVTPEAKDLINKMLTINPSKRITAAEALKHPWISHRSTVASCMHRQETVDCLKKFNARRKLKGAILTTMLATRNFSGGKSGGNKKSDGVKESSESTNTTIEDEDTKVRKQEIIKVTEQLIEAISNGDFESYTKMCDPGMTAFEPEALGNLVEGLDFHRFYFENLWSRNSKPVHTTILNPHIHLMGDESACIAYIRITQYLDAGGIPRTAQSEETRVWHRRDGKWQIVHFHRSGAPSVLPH
Cc1ncc([N+](=O)[O-])n1C: 1%
c1ccc(Nc2ccccc2)cc1: 19%
C[C@H]1[C@H](NC(=O)/C(=N\OC(C)(C)C(=O)O)c2csc(N)n2)C(=O)N1S(=O)(=O)O: -6%
O=C(c1cc(Cc2n[nH]c(=O)c3ccccc23)ccc1F)N1CCn2nc(C(F)(F)F)nc2C1: 0%
CN(C)[C@@H]1C(O)=C(C(N)=O)C(=O)[C@@]2(O)C(O)=C3C(=O)c4c(O)ccc(Cl)c4[C@@](C)(O)[C@H]3C[C@@H]12: 25%

Series 2 — technique: Vi-Cell counting; time: 6 days; reference: DMSO; quantity: cell count
SMILES: CC(C)C[C@H]1NC(=O)[C@H](N(C)C(=O)[C@@H](CC2CCC2)NC(=O)[C@H]2C[C@H](F)CN2C(=O)C2(C(F)(F)F)CC(F)(F)C2)CCCCNC(=O)C2(CC2)NC(=O)[C@@H](Cc2cc(Cl)ccc2Cl)N(C)C1=O
A549; 60 nM: 1.06 and 1.01 and 0.995
HCC4006; 20 nM: 0.992 and 1.01 and 0.932
NCI-H1299; 2 µM: 1.09 and 0.945 and 1.06
NCI-H1299; 600 nM: 1.07 and 0.92 and 0.936
NCI-H446; 60 nM: 0.892 and 1.17 and 0.991

Series 3 — observed: enzyme activity; mode: inhibitor; concentration: 0.5 µM; reference: control; quantity: remaining activity
SMILES: COc1ccc2c(c1)c(C1=C(c3c[nH]c4ccccc34)C(=O)NC1=O)cn2CCCN(C)C
Protein kinase C gamma type (PRKCG, Homo sapiens, UniProt P05129): 54%
Ephrin type-B receptor 2 (EPHB2, Homo sapiens, UniProt P29323): 78.7%
Beta-adrenergic receptor kinase 1 (GRK2, Homo sapiens, UniProt P25098): 99%
NUAK family SNF1-like kinase 1 (NUAK1, Homo sapiens, UniProt O60285): 32.2%
Serine/threonine-protein kinase Sgk1 (SGK1, Homo sapiens, UniProt O00141): 99.5%
Glycogen synthase kinase-3 alpha (GSK3A, Homo sapiens, UniProt P49840): 14%
Myosin light chain kinase, smooth muscle (MYLK, Homo sapiens, UniProt Q15746): 66.9%
Aurora kinase C (AURKC, Homo sapiens, UniProt Q9UQB9): 90.3%
Cytoplasmic tyrosine-protein kinase BMX (BMX, Homo sapiens, UniProt P51813): 96.3%
G protein-coupled receptor kinase 6 (GRK6, Homo sapiens, UniProt P43250): 96.2%

Series 4 — observed: cell-free assay; technique: competition with immobilised ligand; concentration: 1 µM; quantity: remaining binding
SMILES: CN(C)C(=O)Cn1cc(-c2nc(C3(c4ccc(-c5cnc(N)nc5)cc4)CC3)no2)cn1
Macrophage-stimulating protein receptor (MST1R, Homo sapiens, UniProt Q04912): 95%
Mitogen-activated protein kinase 14 (MAPK14, Homo sapiens, UniProt Q16539): 100%
Atypical kinase COQ8B, mitochondrial (COQ8B, Homo sapiens, UniProt Q96D53): 100%
Mitogen-activated protein kinase 7 (MAPK7, Homo sapiens, UniProt Q13164): 97%
Tyrosine-protein kinase ABL1, non-phosphorylated (ABL1, Homo sapiens, UniProt P00519, Q252H): 48%
Tyrosine-protein kinase Fyn (FYN, Homo sapiens, UniProt P06241): 100%
RAC-gamma serine/threonine-protein kinase (AKT3, Homo sapiens, UniProt Q9Y243): 87%
Dual specificity protein kinase CLK3 (CLK3, Homo sapiens, UniProt P49761): 100%
Activin receptor type-1 (ACVR1, Homo sapiens, UniProt Q04771): 95%
Misshapen-like kinase 1 (MINK1, Homo sapiens, UniProt Q8N4C8): 91%
3-phosphoinositide-dependent protein kinase 1 (PDPK1, Homo sapiens, UniProt O15530): 82%
Mitogen-activated protein kinase 13 (MAPK13, Homo sapiens, UniProt O15264): 91%
Ribosomal protein S6 kinase beta-1 (RPS6KB1, Homo sapiens, UniProt P23443): 91%
Phosphorylase b kinase gamma catalytic chain, liver/testis isoform (PHKG2, Homo sapiens, UniProt P15735): 91%
Mitogen-activated protein kinase kinase kinase 10 (MAP3K10, Homo sapiens, UniProt Q02779): 62%
NUAK family SNF1-like kinase 2 (NUAK2, Homo sapiens, UniProt Q9H093): 87%
Tyrosine-protein kinase receptor UFO (AXL, Homo sapiens, UniProt P30530): 93%

Excerpt of the above (series 4):
Activin receptor type-1 (ACVR1, Homo sapiens, UniProt Q04771): 95%
Macrophage-stimulating protein receptor (MST1R, Homo sapiens, UniProt Q04912): 95%
Phosphorylase b kinase gamma catalytic chain, liver/testis isoform (PHKG2, Homo sapiens, UniProt P15735): 91%
